Experimental data gathered from unrelated publications.
Numbered parts are unrelated; each lists some results of a single study. Changes are numbered by the printed parent chain.
Sequence of UniProt Q07912 (whole entry, looked up): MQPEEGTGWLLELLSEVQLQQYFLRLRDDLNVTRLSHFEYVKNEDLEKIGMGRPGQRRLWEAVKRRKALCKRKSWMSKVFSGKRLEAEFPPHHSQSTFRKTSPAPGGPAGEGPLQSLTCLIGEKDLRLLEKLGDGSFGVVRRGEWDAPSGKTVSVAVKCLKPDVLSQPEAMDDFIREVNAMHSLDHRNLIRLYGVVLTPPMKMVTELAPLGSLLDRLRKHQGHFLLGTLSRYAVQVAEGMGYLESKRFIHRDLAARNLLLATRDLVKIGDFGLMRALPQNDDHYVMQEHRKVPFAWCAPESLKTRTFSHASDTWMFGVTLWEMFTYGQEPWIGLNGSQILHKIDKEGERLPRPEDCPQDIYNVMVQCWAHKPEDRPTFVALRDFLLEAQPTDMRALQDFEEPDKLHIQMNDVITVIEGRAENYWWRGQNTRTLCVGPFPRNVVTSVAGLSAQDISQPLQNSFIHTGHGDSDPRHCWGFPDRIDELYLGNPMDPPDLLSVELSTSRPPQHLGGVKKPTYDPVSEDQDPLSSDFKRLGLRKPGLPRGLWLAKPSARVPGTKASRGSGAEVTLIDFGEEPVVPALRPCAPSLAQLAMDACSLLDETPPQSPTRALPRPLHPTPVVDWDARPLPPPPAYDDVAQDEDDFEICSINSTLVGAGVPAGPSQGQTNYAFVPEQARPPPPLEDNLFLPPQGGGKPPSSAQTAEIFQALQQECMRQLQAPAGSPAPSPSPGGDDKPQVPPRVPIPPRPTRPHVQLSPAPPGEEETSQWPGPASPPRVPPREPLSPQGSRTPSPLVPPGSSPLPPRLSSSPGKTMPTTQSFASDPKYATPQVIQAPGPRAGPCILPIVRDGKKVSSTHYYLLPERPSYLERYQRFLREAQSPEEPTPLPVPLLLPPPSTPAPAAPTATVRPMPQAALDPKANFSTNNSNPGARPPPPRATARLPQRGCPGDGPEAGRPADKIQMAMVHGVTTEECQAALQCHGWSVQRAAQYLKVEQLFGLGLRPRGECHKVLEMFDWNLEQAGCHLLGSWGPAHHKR
Sequence of UniProt O43353 (whole entry, looked up): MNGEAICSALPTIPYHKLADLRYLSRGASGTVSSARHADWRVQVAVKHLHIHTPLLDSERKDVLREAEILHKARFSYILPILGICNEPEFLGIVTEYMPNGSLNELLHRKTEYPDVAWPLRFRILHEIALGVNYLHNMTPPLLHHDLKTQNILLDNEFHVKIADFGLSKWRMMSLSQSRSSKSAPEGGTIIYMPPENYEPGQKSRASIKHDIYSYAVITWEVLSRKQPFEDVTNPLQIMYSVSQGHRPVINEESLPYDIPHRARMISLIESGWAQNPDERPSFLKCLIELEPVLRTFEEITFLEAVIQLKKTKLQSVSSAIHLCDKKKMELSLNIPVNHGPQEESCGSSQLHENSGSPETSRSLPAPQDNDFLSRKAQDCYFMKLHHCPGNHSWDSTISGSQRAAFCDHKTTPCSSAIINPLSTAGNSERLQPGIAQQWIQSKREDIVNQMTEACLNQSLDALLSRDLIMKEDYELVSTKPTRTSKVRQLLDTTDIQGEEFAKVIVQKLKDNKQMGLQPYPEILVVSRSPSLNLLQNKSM
Sequence of UniProt P23975 (whole entry, looked up): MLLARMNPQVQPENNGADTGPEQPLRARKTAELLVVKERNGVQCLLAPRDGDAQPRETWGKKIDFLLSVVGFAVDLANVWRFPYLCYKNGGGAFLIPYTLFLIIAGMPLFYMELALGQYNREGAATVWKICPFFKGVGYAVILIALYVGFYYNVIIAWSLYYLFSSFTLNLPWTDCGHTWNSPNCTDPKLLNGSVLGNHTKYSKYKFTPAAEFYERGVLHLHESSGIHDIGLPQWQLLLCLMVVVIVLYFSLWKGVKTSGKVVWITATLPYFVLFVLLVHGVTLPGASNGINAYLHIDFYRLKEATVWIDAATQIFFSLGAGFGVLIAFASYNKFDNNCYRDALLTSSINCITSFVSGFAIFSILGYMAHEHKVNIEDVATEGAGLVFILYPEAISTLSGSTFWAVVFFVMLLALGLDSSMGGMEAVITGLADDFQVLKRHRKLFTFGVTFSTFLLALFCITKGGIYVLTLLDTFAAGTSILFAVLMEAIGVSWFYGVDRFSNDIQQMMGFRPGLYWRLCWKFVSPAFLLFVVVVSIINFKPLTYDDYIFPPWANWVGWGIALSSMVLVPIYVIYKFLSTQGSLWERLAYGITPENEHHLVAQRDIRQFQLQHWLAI

Study 1 — Sequence: DTFDEAFLAAVRSHQG; method: competitive growth deep sequencing; molecule type: peptide; concentration: concentration not given; setting: peptide tiling library; reading: direction not given; measurement: growth enrichment score
yeast with cyclin D1-Cln2 chimera; cell growth, binder: 1.14
Saccharomyces cerevisiae; binding; cyclin E1-Cln2 fusion strain: 1.16
yeast with cyclin B3-Cln2 chimera; cell growth, binder: 0.767
yeast with cyclin D2-Cln2 chimera; cell growth, binder: -0.215
Saccharomyces cerevisiae; binding; cyclin D2-Cln2 fusion strain: 0.865
yeast with cyclin E2-Cln2 chimera; cell growth, binder: -0.0588
yeast with cyclin F-Cln2 chimera; cell growth, binder: -0.0149

Study 2 — target: vanadate, free oxyanion; method: microfluidic competitive inhibition; matrix: in vitro, cell-free expressed; concentration: not given; reading: lower = stronger binding; measurement: oxyanion analog dissociation constant
Setting: derived from inhibition constants, unchanged parent 676 nM
Starting sequence: PafA, mature enzyme, eGFP fusion (Elizabethkingia meningoseptica, UniProt Q9KJX5); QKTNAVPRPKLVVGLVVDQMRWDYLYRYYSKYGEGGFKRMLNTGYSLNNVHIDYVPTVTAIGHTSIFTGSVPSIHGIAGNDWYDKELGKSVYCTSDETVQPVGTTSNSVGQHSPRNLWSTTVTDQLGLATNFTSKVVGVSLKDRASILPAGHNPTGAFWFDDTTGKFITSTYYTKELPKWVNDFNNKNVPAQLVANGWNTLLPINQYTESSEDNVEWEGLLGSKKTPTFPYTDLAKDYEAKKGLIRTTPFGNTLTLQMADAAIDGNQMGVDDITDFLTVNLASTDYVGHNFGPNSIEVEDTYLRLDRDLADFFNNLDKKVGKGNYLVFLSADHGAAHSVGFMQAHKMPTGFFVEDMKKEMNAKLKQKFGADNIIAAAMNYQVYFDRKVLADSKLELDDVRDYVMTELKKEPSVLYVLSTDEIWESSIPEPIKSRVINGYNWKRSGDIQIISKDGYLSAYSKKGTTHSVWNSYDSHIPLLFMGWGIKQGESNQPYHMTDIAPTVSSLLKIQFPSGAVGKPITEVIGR
N315V: 808 nM
E489G: 908 nM
I273V: 846 nM
I485V: 1.86 µM
Y26V: 660 nM
S90V: 1.33 µM
R400V: 719 nM
Y32G: 744 nM

Single results of other studies
COc1ccc2c(c[n+](C)c3c4cc5c(cc4ccc23)OCO5)c1OC — remaining activity (RIPK2 (Homo sapiens, UniProt O43353); enzyme activity, inhibitor; 0.5 µM; baseline: control): 105%
CN([C@@H]1CCc2c(CC(=O)O)c3cc(S(C)(=O)=O)ccc3n2C1)S(=O)(=O)c1ccc(F)cc1 — inhibition (SLC6A2 (Homo sapiens, UniProt P23975); binding, radioligand binding; 10 µM): 22.3%
N/C(=N\[N+](=O)[O-])N/N=C\c1ccc(-c2cccc([N+](=O)[O-])c2)o1 — remaining activity (TNK2 (Homo sapiens, UniProt Q07912); enzyme activity, inhibitor; 0.5 µM; baseline: control): 99.9%
